Results from different studies.
Lines come from different studies, so protocols differ. ± marks the error that the study gave. Values after ≈ are worked out from the molar mass of the structure shown.

Chains of the proteins cited; added tags and fusions are not shown.
UniProt Q9UHD2, whole entry: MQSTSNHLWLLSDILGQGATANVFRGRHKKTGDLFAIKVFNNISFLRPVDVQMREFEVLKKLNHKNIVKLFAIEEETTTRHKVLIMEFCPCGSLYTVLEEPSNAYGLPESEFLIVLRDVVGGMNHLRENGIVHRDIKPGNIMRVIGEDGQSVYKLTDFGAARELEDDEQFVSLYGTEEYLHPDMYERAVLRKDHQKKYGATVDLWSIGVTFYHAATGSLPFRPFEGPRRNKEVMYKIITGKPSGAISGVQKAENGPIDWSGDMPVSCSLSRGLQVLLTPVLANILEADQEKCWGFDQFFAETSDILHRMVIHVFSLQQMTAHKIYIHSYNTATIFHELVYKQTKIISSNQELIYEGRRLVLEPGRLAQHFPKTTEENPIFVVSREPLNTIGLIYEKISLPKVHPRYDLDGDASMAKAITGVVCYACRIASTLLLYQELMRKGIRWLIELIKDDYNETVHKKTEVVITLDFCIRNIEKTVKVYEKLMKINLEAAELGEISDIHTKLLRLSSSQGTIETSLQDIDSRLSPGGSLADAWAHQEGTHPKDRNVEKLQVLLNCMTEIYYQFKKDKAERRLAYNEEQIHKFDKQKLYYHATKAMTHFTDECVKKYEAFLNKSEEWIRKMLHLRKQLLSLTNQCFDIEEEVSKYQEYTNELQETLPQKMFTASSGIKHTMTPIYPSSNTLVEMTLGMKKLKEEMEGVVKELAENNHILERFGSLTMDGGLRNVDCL

Molecule = CCc1nc(N)nc(N)c1C#CCc1cc(OC)cc(-c2ccc(C(=O)O)cc2)c1; target or system = Staphylococcus aureus; system = MRSA isolate HH 714; measurement = MIC; value = 10 µg/mL (≈ 24.8 µM)
Molecule = Cc1ccc(S(=O)(=O)N(C)CC(=O)N(Cc2ccc(C3CCCCC3)cc2)c2ccc(C(=O)O)c(O)c2)cc1; target or system = NIH3T3/v-Src, PANC-1, MDA-MB-231; test = immunoblotting, measured: phospho-Shc; setting = concentration not given, 24 h; measurement = phosphorylation level; value = no effect
Molecule = C(CCCCCN1COOC2(CCCC2)OOC2(CCCC2)OOC1)CCCCN1COOC2(CCCC2)OOC2(CCCC2)OOC1; target or system = U-937; test = cytotoxicity, 7-AAD flow cytometry; measurement = IC50; value = 3.02 ± 0.13 µM
Molecule = CC[C@H](C)[C@@H]1NC(=O)[C@H](CCC(=O)O)NC(=O)[C@@H]2CCCN2C(=O)[C@H](Cc2c[nH]cn2)NC(=O)[C@H](CC(=O)O)NC(=O)[C@H](Cc2ccc(O)cc2)NC(=O)[C@H](CC(N)=O)NC(=O)[C@@H]2CSSC[C@@H]3NC(=O)CNC(=O)CNC(=O)CNC(=O)[C@H](C)NC(=O)[C@H](C)NC(=O)CNC(=O)CNC(=O)[C@H](CSSC[C@H](NC3=O)C(=O)N[C@@H](CO)C(=O)N[C@@H](CC(=O)O)C(=O)N3CCC[C@H]3C(=O)N[C@@H](CCCNC(=N)N)C(=O)N2)NC1=O; target or system = Cav2.1 human L1852T; test = Ba2+ current; setting = 200 nM; measurement = inhibition; value = 7.2 ± 1.4%
Molecule = O=c1ccc2nc3ccc(OCC4CCCOC4)cc3oc-2c1 (centres unmarked); target or system = Mycobacterium tuberculosis; system = mc2 6206 clofazimine-resistant fbiC mutant; setting = 7 days; measurement = MIC90; value = 73 µM (≈ 22.7 µg/mL)
Molecule = CC(C)Cc1nnc2c(C(=O)NC3c4ccccc4-c4ccccc43)cccn12; target or system = Escherichia coli; test = broth microdilution; system = D21f2tolC; measurement = MIC; value = 8 µg/mL (≈ 20.9 µM)
Molecule = CC1=C(c2ccc(F)cc2)S(=O)(=O)N=C1N1CCC(N2CCCCC2)CC1; target or system = AAC(3)-IV Escherichia coli; test = acetyltransferase activity, inhibitor; setting = concentration not given; measurement = inhibition; value = no inhibition
Molecule = COCOc1ccc2nc3ccc(=O)cc-3oc2c1; target or system = Mycobacterium tuberculosis; system = mc2 6206 PA-824-resistant ddn mutant; setting = 7 days; measurement = MIC90; value = 7.2 µM (≈ 1.85 µg/mL)
Molecule = CSc1nc(Cl)cc(Sc2nnc(-c3cc(C(F)(F)F)cc(C(F)(F)F)c3)[nH]2)n1; target or system = Klebsiella pneumoniae; system = BARB 105; measurement = MIC; value = > 590 µg/mL
Molecule = Cc1cc(N(CCCl)CCCl)ccc1C(=O)O; target or system = ACHN; test = cell growth, inhibitor, MTT; measurement = IC50; value = 5.72 µg/mL
Molecule = O=[N+]([O-])c1ccc(N2CCN(c3ccc([N+](=O)[O-])cc3[N+](=O)[O-])CC2)c([N+](=O)[O-])c1; target or system = Escherichia coli; system = ATCC 25922; measurement = MIC; value = 125 µg/mL (≈ 299 µM)
Molecule = CCC(C)C(CC)C(N)=O (centres unmarked); test = 6 Hz psychomotor seizure test; system = mouse; setting = intraperitoneal, with: 32 mA; measurement = ED50; value = 37 mg/kg
Molecule = CCCCCCCCCCCCCC(=S)NCCCC[C@H](NC(=O)OCc1ccccc1)C(=O)Nc1cccc(O)c1; target or system = HCT-116 pCDH overexpressing; test = anchorage-independent growth; measurement = GI50; value = 12.1 ± 0.5 µM
Molecule = O=c1ccc2nc3ccc(OCCO)cc3oc-2c1; target or system = Mycobacterium tuberculosis; system = mc2 6206 PA-824-resistant ddn mutant; setting = 7 days; measurement = MIC90; value = > 256 µM
Molecule = COc1cc(OC)c2ccccc2c1C=C1C(=O)NC(=S)NC1=O; target or system = Ly19, SU-DHL-8; test = ELISA, measured: HMOX1; setting = 4 µM, 24 h; measurement = protein level; value = increased
Molecule = C[C@H]1COc2c(N3CCN(C)CC3)c(F)cc3c(=O)c(C(=O)O)cn1c23; target or system = Staphylococcus aureus topoisomerase IV GrlA S81Y; measurement = maximal DNA cleavage; value = 23.5%
Molecule = CCN1CCN(Cc2ccc(NC(=O)c3ccc(C)c(/C=C/c4cnc5[nH]ccc5c4OC)c3)cc2C(F)(F)F)CC1; target or system = Serine/threonine-protein kinase TBK1 (TBK1, Homo sapiens, UniProt Q9UHD2); test = kinase-CDC37 interaction, inhibitor; system = human cells; setting = 5 µM; how to read = baseline: vehicle; measurement = log2 fold change; value = -0.053
Molecule = U-69593; target or system = opioid receptors, mouse; test = G protein activation, agonist; system = C57BL/6 wild-type mouse striatal membranes; measurement = EC50; value = 0.47 ± 0.14 µM
Molecule = O=c1ccc2nc3ccc(OCc4ccc([N+](=O)[O-])s4)cc3oc-2c1; target or system = Mycobacterium tuberculosis; system = mc2 6206 clofazimine-resistant fbiC mutant; setting = 7 days; measurement = MIC90; value = 213 µM (≈ 75.5 µg/mL)
Molecule = NNC(=O)c1ccncc1; target or system = Mycobacterium bovis; system = BCG Tac^r10.2, thyA W98R missense; setting = TA-C-resistant thyA mutant; measurement = MIC50; value = 0.4 µM (≈ 0.0549 µg/mL)
Molecule = CC#C/C(=N\OC[C@H]1COCCN1)c1ccc2ncnc(Nc3ccc(OCc4cccc(F)c4)c(Cl)c3)c2c1; target or system = NCI-N87; test = cell growth; measurement = IC50; value = 0.0078 ± 0.0014 µM
Molecule = c1ccc(Nc2cccc3ccccc23)cc1; target or system = Manis javanica OBP3 G68A; test = binding, fluorescence binding; setting = with: 1-NPN probe; measurement = Kd; value = 0.58 ± 0.14 µM
Molecule = C1CCCC2(CC1)OOCOCOOC1(CCCCCC1)OO2; target or system = Jurkat; test = cytotoxicity, 7-AAD flow cytometry; measurement = IC50; value = 7.18 ± 0.17 µM
Molecule = Cc1c(N2CC[C@@H](CN)C2)c(F)cc2c(=O)n(N)c(=O)n(C3CC3)c12; target or system = Staphylococcus aureus topoisomerase IV GrlA S81F; measurement = maximal DNA cleavage; value = 39.5%
Molecule = O=c1ccc2nc3ccc(OCc4ccc([N+](=O)[O-])cc4)cc3oc-2c1; target or system = Mycobacterium tuberculosis; system = mc2 6206 bedaquiline-resistant MmpL5 regulator mutant; setting = 7 days; measurement = MIC90; value = > 256 µM
Molecule = CCCCCCC1c2ccc(O)cc2Oc2cc(O)ccc21; target or system = Salmonella Typhimurium; system = SL1344; setting = with: polymyxin B nonapeptide 25 µg/mL; measurement = MIC; value = 13 µg/mL (≈ 43.6 µM)
Molecule = O=c1ccc2nc3ccc(OCc4ccc([N+](=O)[O-])o4)cc3oc-2c1I; target or system = Mycobacterium tuberculosis; system = mc2 6206, fbiC mutant, clofazimine-resistant; measurement = MIC90; value = inactive
Molecule = COC(=O)c1ccc(Cl)cc1NC(=O)CSc1ncc(S(=O)(=O)c2ccc(Br)cc2)c(=O)[nH]1; target or system = dengue virus 2; test = viral replication, single-cycle viral yield; system = New Guinea C; setting = 10 µM; measurement = inhibition; value = > 90%
Molecule = O=c1ccc2ccc(OCc3ccc([N+](=O)[O-])o3)cc2o1; target or system = Mycobacterium tuberculosis; system = mc2 6206 PA-824-resistant ddn mutant; setting = 7 days; measurement = MIC90; value = 14.2 µM (≈ 4.08 µg/mL)
Molecule = CCOC(=O)OCOc1c(-c2ccc(Oc3ccc(OC(F)(F)F)cc3)cc2)c(C)nc2cc(OC)c(Cl)cc12; target or system = Plasmodium yoelii; system = mouse; setting = oral, 4 days, Peters test; measurement = non-recrudescence dose; value = 1 mg/kg/day
Molecule = CCN(CC)C(=O)Oc1ccc(C(=O)Nc2cccc3cc[nH]c23)cc1; test = NMDA receptor EPSC, inhibitor, whole-cell patch clamp; system = subthalamic nucleus neurons, rat, subthalamic nucleus slices; setting = 10 µM; how to read = baseline: control; measurement = charge transfer; value = 45 ± 2.8%
Molecule = CC1CCC2(CC1)OOCN(CCCCCCCCCCN1COOC3(CCC(C)CC3)OOC3(CCC(C)CC3)OOC1)COOC1(CCC(C)CC1)OO2 (centres unmarked); target or system = HEK293; test = cytotoxicity, 7-AAD flow cytometry; measurement = IC50; value = 12.2 ± 0.48 µM
Molecule = COCCOc1ccc2nc3ccc(=O)c(I)c-3oc2c1; target or system = Mycobacterium tuberculosis; system = mc2 6206 bedaquiline-resistant MmpL5 regulator mutant; setting = 7 days; measurement = MIC90; value = > 256 µM
Molecule = Nc1ccc(C(=O)O)c(O)c1; target or system = Mycobacterium bovis; system = BCG Tac^r10.1, thyA H147Y missense; setting = TA-C-resistant thyA mutant; measurement = MIC50; value = > 100 µM
Molecule = CCC(C)C1NC(=O)/C(=C(/C)O)C1=O (centres unmarked); target or system = plasma membrane H+-ATPase (Spinacia oleracea); test = ATP hydrolysis; system = plasma membrane fraction; setting = 1.0 µM; measurement = Vmax; value = 219 nmol Pi/mg/min

Some of these lines once more:
Molecule = CCOC(=O)OCOc1c(-c2ccc(Oc3ccc(OC(F)(F)F)cc3)cc2)c(C)nc2cc(OC)c(Cl)cc12; target or system = Plasmodium yoelii; system = mouse; setting = oral, 4 days, Peters test; measurement = non-recrudescence dose; value = 1 mg/kg/day
Molecule = C[C@H]1COc2c(N3CCN(C)CC3)c(F)cc3c(=O)c(C(=O)O)cn1c23; target or system = Staphylococcus aureus topoisomerase IV GrlA S81Y; measurement = maximal DNA cleavage; value = 23.5%
Molecule = CCN(CC)C(=O)Oc1ccc(C(=O)Nc2cccc3cc[nH]c23)cc1; test = NMDA receptor EPSC, inhibitor, whole-cell patch clamp; system = subthalamic nucleus neurons, rat, subthalamic nucleus slices; setting = 10 µM; how to read = baseline: control; measurement = charge transfer; value = 45 ± 2.8%
Molecule = CC(C)Cc1nnc2c(C(=O)NC3c4ccccc4-c4ccccc43)cccn12; target or system = Escherichia coli; test = broth microdilution; system = D21f2tolC; measurement = MIC; value = 8 µg/mL (≈ 20.9 µM)
Molecule = O=c1ccc2nc3ccc(OCc4ccc([N+](=O)[O-])o4)cc3oc-2c1I; target or system = Mycobacterium tuberculosis; system = mc2 6206, fbiC mutant, clofazimine-resistant; measurement = MIC90; value = inactive
